# Experimental data from different studies.
# Compare with care: the assays were run in different laboratories. ± gives the spread as reported.
# B1: acsA (Pseudomonas chlororaphis, UniProt Q5CD72); chain MRDYEHVVESFDYLQSATQDLHGELTALNACVECCDRHAHGEAVALYCEAQDGHAERYRFRDLQRQAARFGNFLREQGVKPGDRVAGLMPRTVELLIAILGTWRIGAVYQPLFTAFGPKAIEQRLNCSNARWIVTDPHNRPKLDDVTDCPSIVVTGGAPQNPADHHFWSALNRQADDCAPVLLDASAPFLLMCTSGTTGPAKPLEVPLSAILAFKGYMRDAIDLRADDRFWNLADPGWAYGLYYAVTGPLACGYATLFYDGPFTVESTRHIIAKYAINNLAGSPTAYRFLIAAGAEFADAVRGRLRAVSSAGEPLNPQVVRWFAEQLGVVIHDHYGQTEIGMVLCNHHGLRHPVREGSAGYAVPGYRIVVLDKAHRELPAGQPGVLAVDRERSPLCWFDGYLGMPTQAFAGRYYLSGDIVELNDDGSISFVGRNDDLITTSGYRVGPFDVESALIEHPAVVEAAVIGKPDPQRTELIKAFVVLNTPYLPSPELAEELRLHVRQRLAAHAYPREMEFVDHLPKTPSGKLQRFILRNQEIAKQQALG
# B2: enzyme (Staphylococcus aureus, UniProt A0A0H2XHR6); chain MQKSALFAPEKYNIISEIEKYSHIPDKKAILYHNTEGEDISVTYQQLIEQSNKVGNVLASHGLSKGDKVLIMMPRSIATYELYIAALKLGVAIIPCSEMLRTKDLQYRITHGEINAVIALEPFTVEFEKIKEYDALTKFVIAGQKDGWISLEAEKENASNKLEMADTTRDDMAILSYTSGTTGNPKAVTHCHGWGFAHLQMAPKHWLCINEDDLVWATAAPGWQKWVWSPFLSVLGSGATAFVFNGRFSPETYLELLQKYQINVLCCTPTEYRMMAKLQNLNDYDLTHLHSAVSAGEPLNREVVEQFKKYFNLTVRDGYGQTESTLLIGFLKDTPQRIGSMGKGIPGSSVTVVDDEGNSVPANTKGNIAVPLDLPALFKGYYKEPERTAKAQTGKYYITGDLAHVDDDGYFWFEGRRDDIIISSGYTIGPFEVEDALTNHPAVKECAVVAKPHDIRGNIVKAFVILQDHTAGDDTLVKELQQFVKNEVAPYKYPREIEFVDDLPKTNSGKIRRVELRDAEIEKWQQQKDSNQ
# B3: aspC A106G/A17N/A218G/A278L/A281T/A8Q/D18E/F210I/F212I/F350Y/G15S/G249S/I187A/I279A/I29V/I33V/I341V/I5L/I68L/I71L/L46M/M321L/M380L/N285S/N30D/N64T/S129T/S135A/S273G/S351L/T100S/V125I/V136I/V375I/Y244C (Escherichia coli, UniProt P00509); chain MFENLTAQPADPILSLNELFRADERPGKVDLGVGVYKDETGKTPVMTSVKKAEQYLLENETTKTYLGLDGLPEFGRCTQELLFGKGSALINDKRARTAQSPGGTGGLRVAADFLAKNTSVKRVWISNPTWPNHKAIFNSAGLEVREYAYYDAENHTLDFDALINSLNEAQAGDVVLFHGCCHNPTGADPTLEQWQTLAQLSVEKGWLPLIDIAYQGFGRGLEEDAEGLRAFAAMHKELIVASSCSKNFSLYNERVGACTLVAADSETVDRAFGQMKALARTNYSSPPAHGASVVATILSNDALRAIWEQELTDMRQRIQRLRQLFVNTLQEKGANRDFSFVIKQNGMFSYLGLTKEQVLRLREEFGVYAVASGRINVAGLTPDNMAPLCEAIVAVL
# B4: enzyme Y24A (Nitrosopumilus maritimus, UniProt A9A5X4); chain MDSQKFDSIIFDCDGVLVDITQSADKTIDKTCRYVLKEFAKIDSITIDHKIIDGFKSSGGFNDEVDLVYAAILSLYTANKLNKKPSEFIYDVISNTDKTGIRSVQSYLESIYDVSEFLSKLGSLGDRHNNPVYSIFDQFFFGPELYGKLFDKQSKFSEEGMISNDKVILSVSLLETLQKEFGKKIAVVTGRGIESIRYSLKDMMDYFDTKNSAFLEDEPRELAKPNPATLIRAIQSMESKNCLYVGDSMEDYMMAKDAAQAGHSTTFCAIVGTSTNPEDRRKLFADSGVEMILESINDIPKVLNLV
# B5: enzyme H459A (Methanosarcina mazei, UniProt Q8PVB1); chain MSEQRSVPLREHLLALKPCRHGGLIQETSETYGIPENEILDFSANFNPLGSPFDYPENGLNFEDIIKKSCGKLLEYPDNRYVEFREAAARFVGLGVTPQSIVPGNGSTEIVRLVVESVIEKGDKVLLPWPTFGEYEMQCRITGAEPVCPSQEEVNTLPDEVLEEAKILFICNPNNPTGKLRTREELKVLAERCREHKTLLYVDEAFIELSDPSQSVADLPAENNYVFVMRSLTKDFAIPGIRMGFGIAPPAMADILNTARLSWNLGAIANNTGIALLNIEGGIDSPYLKKAREMILKEGETLKAKIDRIRGFEAGEVNVNFILVDVSKFMLNSSELTARLAARGVLVRDCVSFHGLGKNYIRVAVRTEKENDRLIAAIGDVITEWGREQAKNELQHVIEKASEEGIGGRKTCEYYPCHFEGQNCTFCFCPFYPCENEKTGGKWIQSSRGGRVWSCVDCALVHKKEIAQKILDCLMHEGDTDELVKVAWKEVMEPIL
# B6: enzyme L71Q/Y136L (Bradyrhizobium diazoefficiens, UniProt Q45222); chain MIQTERAVQQVLEWGRSLTGFADEHAVEAVRGGQYILQRIHPSLRGTSARTGRDPQDETLIVTFYRELALQFWLDDCNDLGLISPEQLAAVEQALGQGVPCALPGFEGCAVLRASLATLAYDRRDYAQLLDDTRCLSAALRAGHAQAVAAERWSYAEYLHNGIDSIAYANVFCCLSLLWGLDMATLRARPAFRQVLRLISAIGRLQNDLHGCDKDRSAGEADNAVILLLQRYPAMPVVEFLNDELAGHTRMLHRVMAEERFPAPWGPLIEAMAAIRVQYYRTSTSRYRSDAVRGGQRAPA
# B7: enzyme W53F (Thermoplasma volcanium, UniProt Q978S7); chain MAFHGLVKYSDITVEGYPKIQYHGFIGNNRTAMLVAMNGYIDFGCLPNFNSNAVFSSILDKNKGGYFAIFPSDTTDVYVDQYYKEMTNVLVTEFVKNGKIILRLTDFMPDSEYGKISFPEVHRFVESFSEPIDITIDFKPTFNYGQDKPIIEKDQHGFIFTTDKESIGISSEFPLRKNSDRIFGNVKMEPRSSSWIIALYGIHHLFRTTDYKSYLRLQETTDYWRKWASSSSYAGAYHSMVMRSALALKVLFYEPTGLMVAAPTASLPEAIGGERNWDYRFTWIRDTAYVIEALSSIGYKYEATEFLYDMMDMITRDNRIRTIYSIDDSNDLEERIIDYEGYRGSRPVRIGNKAVDQLQIDQYGSIVRAIHSMAKAGGIVNSYLWDFVEQVMAKIEYLWKYPDSSIWEFRTEPKQYVYSKVMSWAAFDSAISMAKDLGLSAPIKQWKSIQDEIKKEVLEKGFDTDTNSFVQYYGSKNIDAALLRLPILGFIPANDEKFLGTLSRIEKELMVDGYLFKRYREDDGLKGDEGSFLMLTFWYIEDLILMKRLKKAREVLESVLEKANHLGLYSEEIDEKSGDFLGNFPQALSHLGVIRVAPKLEEALLKRTSKINS
# B8: enzyme F206A/H226Y (Oryctolagus cuniculus, UniProt P00178); chain GRLPPGPSPLPVLGNLLQMDRKGLLRSFLRLREKYGDVFTVYLGSRPVVVLCGTDAIREALVDQAEAFSGRGKIAVVDPIFQGYGVIFANGERWRALRRFSLATMRDFGMGKRSVEERIQEEARCLVEELRKSKGALLDNTLLFHSITSNIICSIVFGKRFDYKDPVFLRLLDLFFQSASLISSFSSQVFELFPGFLKYFPGTHRQIYRNLQEINTFIGQSVEKHRATLDPSNPRDFIDVYLLRMEKDKSDPSSEFHHQNLILTVLSLFFAGTETTSTTLRYGFLLMLKYPHVTERVQKEIEQVIGSHRPPALDDRAKMPYTDAVIHEIQRLGDLIPFGVPHTVTKDTQFRGYVIPKNTEVFPVLSSALHDPRYFETPNTFNPGHFLDANGALKRNEGFMPFSLGKRICLGEGIARTELFLFFTTILQNFSIASPVPPEDIDLTPRESGVGNVPPSYQIRFLAR
# B9: efeB (Bacillus subtilis, UniProt P39597); chain IGASGLGGLAPLVQTAAKPSKKDEKEEEQIVPFYGKHQAGITTAHQTYVYFAALDVTAKDKSDIITLFRNWTSLTQMLTSGKKMSAEQRNQYLPPQDTGESADLSPSNLTVTFGFGPGFFEKDGKDRFGLKSKKPKHLAALPAMPNDNLDEKQGGGDICIQVCADDEQVAFHALRNLLNQAVGTCEVRFVNKGFLSGGKNGETPRNLFGFKDGTGNQSTKDDTLMNSIVWIQSGEPDWMTGGTYMAFRKIKMFLEVWDRSSLKDQEDTFGRRKSSGAPFGQKKETDPVKLNQIPSNSHVSLAKSTGKQILRRAFSYTEGLDPKTGYMDAGLLFISFQKNPDNQFIPMLKALSAKDALNEYTQTIGSALYACPGGCKKGEYIAQRLLES
# Sequence of UniProt P0AE52 (whole entry, looked up): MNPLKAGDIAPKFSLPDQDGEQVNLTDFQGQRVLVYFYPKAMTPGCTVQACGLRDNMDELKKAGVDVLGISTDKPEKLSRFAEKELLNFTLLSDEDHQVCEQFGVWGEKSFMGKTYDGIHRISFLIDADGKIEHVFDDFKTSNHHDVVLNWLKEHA
# Sequence of UniProt Q00535 (whole entry, looked up): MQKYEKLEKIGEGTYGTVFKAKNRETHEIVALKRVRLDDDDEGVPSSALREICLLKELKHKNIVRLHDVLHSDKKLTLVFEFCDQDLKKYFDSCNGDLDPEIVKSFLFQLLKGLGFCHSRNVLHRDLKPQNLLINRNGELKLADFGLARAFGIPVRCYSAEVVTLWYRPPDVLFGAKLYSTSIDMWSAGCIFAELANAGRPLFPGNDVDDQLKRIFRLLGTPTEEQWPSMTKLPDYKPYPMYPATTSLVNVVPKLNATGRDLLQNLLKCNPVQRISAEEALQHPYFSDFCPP
Molecule,tested on,test,system,conditions,scale,endpoint,result
human RANBP2,CYB5R4 knockout human cells,"PP6 interaction, 3xFLAG-PP6C IP-MS",,concentration not given,reference: CYB5R4 KO over parental,log2 fold change,1.06
"bcp (Escherichia coli, UniProt P0AE52)",CC(C)(C)OO,steady-state kinetics,,"pH 7, 25 °C, apparent",,kcat/Km,220 M⁻¹ s⁻¹
B1 (acsA),CCCC(=O)O,steady-state kinetics,,pH 7,,kcat/Km,1170 ± 333 M⁻¹ s⁻¹
B2 (enzyme),CC(C)C(=O)O,steady-state kinetics,,"pH 7.5, 37 °C",,kcat/Km,49000 M⁻¹ s⁻¹
B3,N[C@@H](Cc1ccccc1)C(=O)O,steady-state kinetics,,"pH 7.5, 25 °C, with: PMP 20 µM",,kcat/Km,200 M⁻¹ s⁻¹
B4 (enzyme Y24A),N[C@H](COP(=O)(O)O)Cc1c[nH]cn1,steady-state kinetics,,"pH 7.8, 25 °C",,kcat/Km,36 ± 9 M⁻¹ s⁻¹
B5 (enzyme H459A),Nc1ncnc2c1ncn2[C@@H]1O[C@H](COP(=O)(O)OP(=O)(O)OP(=O)(O)O)[C@@H](O)[C@H]1O,steady-state kinetics,,"pH 8.5, 25 °C, apparent, anoxic, with: L-Thr 10 mM",,kcat/Km,312 ± 78 M⁻¹ s⁻¹
"enzyme (Oryza sativa, UniProt Q6ZGQ4)",O=[N+]([O-])c1ccc(O[C@@H]2O[C@@H](CO)[C@H](O)[C@H]2O)cc1,steady-state kinetics,,"pH 4, 40 °C, apparent",,kcat/Km,6.1 M⁻¹ s⁻¹
KEAFFDRCLSVINLMSSKMLQINA,"Cyclin-dependent kinase 5, with p25 (CDK5, Homo sapiens, UniProt Q00535)","phosphotransferase activity, radiometric",peptide,"concentration not given, 10% DMSO, with: histone substrate",reference: p5-WT peptide,activity change,16%
B6 (enzyme L71Q/Y136L),C=C1CC[C@@H]2C(C)(C)CCC[C@@]2(C)[C@@H]1CC/C(C)=C/COP(=O)(O)OP(=O)(O)O,steady-state kinetics,,,,kcat/Km,4000 M⁻¹ s⁻¹
B7 (enzyme W53F),OC[C@H]1O[C@H](O[C@H]2O[C@H](CO)[C@@H](O)[C@H](O)[C@H]2O)[C@H](O)[C@@H](O)[C@@H]1O,steady-state kinetics,,"pH 3.7, 30 °C",,kcat/Km,330 M⁻¹ s⁻¹
DNA topoisomerase 2-beta (human),CYB5R4 knockout human cells,"PP4 interaction, 3xFLAG-PP4C IP-MS",,concentration not given,reference: CYB5R4 KO over parental,log2 fold change,-1.68
enzyme (UniProt A0A7S7NT01),CC(=O)N[C@H]1[C@H](Oc2ccc([N+](=O)[O-])cc2)O[C@H](CO)[C@@H](O[C@@H]2O[C@H](CO)[C@H](O)[C@H](O)[C@H]2O)[C@@H]1O,steady-state kinetics,,"pH 6, 45 °C",,kcat/Km,13000 M⁻¹ s⁻¹
"enzyme (Ectocarpus siliculosus, UniProt D7FYY3)",Nc1ncnc2c1ncn2[C@@H]1O[C@H](COP(=O)(O)OP(=O)(O)O)[C@@H](O)[C@H]1O,steady-state kinetics,,"pH 5.5, 25 °C, with: 16 mM PEP",,kcat/Km,140000 M⁻¹ s⁻¹
B8 (enzyme F206A/H226Y),CCOc1ccc2c(C(F)(F)F)cc(=O)oc2c1,steady-state kinetics,,"37 °C, with: 7-EFC",,kcat/Km,333 M⁻¹ s⁻¹
B9 (efeB),Nc1c(S(=O)(=O)O)cc(Nc2cccc(S(=O)(=O)CCOS(=O)(=O)O)c2)c2c1C(=O)c1ccccc1C2=O,steady-state kinetics,,"pH 4, 25 °C, apparent",,kcat/Km,35000 M⁻¹ s⁻¹
enzyme (UniProt A0A4R3LQ44),O=C(O)[C@H](O)[C@@H](O)[C@@H](O)CO,steady-state kinetics,,"pH 7.5, 50 °C",,kcat/Km,4400 ± 800 M⁻¹ s⁻¹
enzyme (UniProt Q83XK4),NC(=O)C1=CN([C@@H]2O[C@H](COP(=O)(O)OP(=O)(O)OC[C@H]3O[C@@H](n4cnc5c(N)ncnc54)[C@H](OP(=O)(O)O)[C@@H]3O)[C@@H](O)[C@H]2O)C=CC1,steady-state kinetics,,"pH 7, 30 °C, cofactor varied",,kcat/Km,9200 M⁻¹ s⁻¹

# Excerpt of the above:
Molecule,tested on,test,system,conditions,scale,endpoint,result
B7 (enzyme W53F),OC[C@H]1O[C@H](O[C@H]2O[C@H](CO)[C@@H](O)[C@H](O)[C@H]2O)[C@H](O)[C@@H](O)[C@@H]1O,steady-state kinetics,,"pH 3.7, 30 °C",,kcat/Km,330 M⁻¹ s⁻¹
